Results from different studies.
Numbers after ± are the reported error.
FLT3: Receptor-type tyrosine-protein kinase FLT3 (FLT3, Homo sapiens, UniProt P36888)
TRPM8: Transient receptor potential cation channel subfamily M member 8 (TRPM8, Homo sapiens, UniProt Q7Z2W7)
Sequence of UniProt Q7Z2W7 (whole entry, looked up): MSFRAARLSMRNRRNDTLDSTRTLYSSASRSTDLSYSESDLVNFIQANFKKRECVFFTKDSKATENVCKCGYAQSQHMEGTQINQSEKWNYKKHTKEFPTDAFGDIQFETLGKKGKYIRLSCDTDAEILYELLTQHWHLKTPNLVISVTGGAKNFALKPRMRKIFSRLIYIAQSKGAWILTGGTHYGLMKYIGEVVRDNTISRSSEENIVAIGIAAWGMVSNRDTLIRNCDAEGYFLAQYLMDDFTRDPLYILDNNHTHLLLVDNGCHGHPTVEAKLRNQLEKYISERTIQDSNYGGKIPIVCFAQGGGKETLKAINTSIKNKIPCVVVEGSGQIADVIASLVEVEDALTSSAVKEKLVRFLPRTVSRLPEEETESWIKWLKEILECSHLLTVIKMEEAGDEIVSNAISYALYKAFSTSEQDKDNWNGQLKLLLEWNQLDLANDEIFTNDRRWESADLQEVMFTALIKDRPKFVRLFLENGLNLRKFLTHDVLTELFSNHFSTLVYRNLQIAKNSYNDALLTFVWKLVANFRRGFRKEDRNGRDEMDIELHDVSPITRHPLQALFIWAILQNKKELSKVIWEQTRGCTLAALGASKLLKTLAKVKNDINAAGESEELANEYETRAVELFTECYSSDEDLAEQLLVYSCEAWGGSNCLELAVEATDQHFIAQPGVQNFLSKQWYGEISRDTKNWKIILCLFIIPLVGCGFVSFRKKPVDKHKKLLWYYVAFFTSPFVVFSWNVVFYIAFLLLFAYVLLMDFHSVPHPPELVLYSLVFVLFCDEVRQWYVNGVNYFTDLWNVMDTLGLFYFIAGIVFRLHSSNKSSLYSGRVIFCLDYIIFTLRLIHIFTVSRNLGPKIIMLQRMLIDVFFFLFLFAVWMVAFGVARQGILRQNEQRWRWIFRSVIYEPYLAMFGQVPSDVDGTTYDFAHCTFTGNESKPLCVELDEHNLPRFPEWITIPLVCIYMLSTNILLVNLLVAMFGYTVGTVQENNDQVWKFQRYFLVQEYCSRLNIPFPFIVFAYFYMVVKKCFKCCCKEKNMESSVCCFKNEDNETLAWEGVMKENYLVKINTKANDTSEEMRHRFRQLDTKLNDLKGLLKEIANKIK
Sequence of UniProt Q15418 (whole entry, looked up): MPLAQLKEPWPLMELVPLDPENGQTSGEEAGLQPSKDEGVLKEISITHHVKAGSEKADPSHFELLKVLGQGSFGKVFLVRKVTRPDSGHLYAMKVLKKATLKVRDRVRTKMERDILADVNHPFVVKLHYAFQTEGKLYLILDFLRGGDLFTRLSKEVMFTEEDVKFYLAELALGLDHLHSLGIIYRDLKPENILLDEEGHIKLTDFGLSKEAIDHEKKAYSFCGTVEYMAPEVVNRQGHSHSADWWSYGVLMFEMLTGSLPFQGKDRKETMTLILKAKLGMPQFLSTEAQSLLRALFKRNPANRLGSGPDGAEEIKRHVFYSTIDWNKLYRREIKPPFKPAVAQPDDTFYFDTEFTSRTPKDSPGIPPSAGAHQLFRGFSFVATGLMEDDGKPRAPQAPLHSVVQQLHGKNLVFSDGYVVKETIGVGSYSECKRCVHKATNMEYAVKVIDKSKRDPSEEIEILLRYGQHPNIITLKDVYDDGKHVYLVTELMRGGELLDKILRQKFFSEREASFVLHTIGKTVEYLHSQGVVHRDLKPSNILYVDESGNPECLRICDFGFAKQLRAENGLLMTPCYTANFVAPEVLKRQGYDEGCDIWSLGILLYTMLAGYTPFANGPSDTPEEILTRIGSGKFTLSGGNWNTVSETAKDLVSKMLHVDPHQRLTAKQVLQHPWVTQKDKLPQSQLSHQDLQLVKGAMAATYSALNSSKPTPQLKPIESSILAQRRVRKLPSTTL
Sequence of UniProt P06239 (whole entry, looked up): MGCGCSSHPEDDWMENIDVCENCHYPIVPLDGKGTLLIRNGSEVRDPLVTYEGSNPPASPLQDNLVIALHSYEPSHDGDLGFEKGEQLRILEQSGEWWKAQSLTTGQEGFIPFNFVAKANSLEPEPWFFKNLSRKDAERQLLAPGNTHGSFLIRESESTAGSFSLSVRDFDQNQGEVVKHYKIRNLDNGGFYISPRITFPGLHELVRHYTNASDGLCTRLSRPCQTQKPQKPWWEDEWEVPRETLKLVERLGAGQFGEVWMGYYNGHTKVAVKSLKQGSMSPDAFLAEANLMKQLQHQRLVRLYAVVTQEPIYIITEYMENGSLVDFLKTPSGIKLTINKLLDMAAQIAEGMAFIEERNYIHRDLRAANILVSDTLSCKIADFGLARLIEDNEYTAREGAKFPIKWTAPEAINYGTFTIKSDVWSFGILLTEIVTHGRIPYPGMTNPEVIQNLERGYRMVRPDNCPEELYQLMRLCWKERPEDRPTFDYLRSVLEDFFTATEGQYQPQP
Sequence of UniProt Q8N752 (whole entry, looked up): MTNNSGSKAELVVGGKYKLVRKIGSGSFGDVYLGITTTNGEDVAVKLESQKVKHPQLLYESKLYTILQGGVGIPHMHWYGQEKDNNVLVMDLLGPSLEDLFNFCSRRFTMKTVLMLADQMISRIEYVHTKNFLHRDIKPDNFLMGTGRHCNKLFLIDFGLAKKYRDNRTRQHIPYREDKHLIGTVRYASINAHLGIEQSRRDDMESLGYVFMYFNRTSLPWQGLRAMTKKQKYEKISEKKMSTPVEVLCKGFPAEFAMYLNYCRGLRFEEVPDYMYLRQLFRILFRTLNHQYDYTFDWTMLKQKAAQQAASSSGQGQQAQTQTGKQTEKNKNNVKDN
Sequence of UniProt Q8N5S9 (whole entry, looked up): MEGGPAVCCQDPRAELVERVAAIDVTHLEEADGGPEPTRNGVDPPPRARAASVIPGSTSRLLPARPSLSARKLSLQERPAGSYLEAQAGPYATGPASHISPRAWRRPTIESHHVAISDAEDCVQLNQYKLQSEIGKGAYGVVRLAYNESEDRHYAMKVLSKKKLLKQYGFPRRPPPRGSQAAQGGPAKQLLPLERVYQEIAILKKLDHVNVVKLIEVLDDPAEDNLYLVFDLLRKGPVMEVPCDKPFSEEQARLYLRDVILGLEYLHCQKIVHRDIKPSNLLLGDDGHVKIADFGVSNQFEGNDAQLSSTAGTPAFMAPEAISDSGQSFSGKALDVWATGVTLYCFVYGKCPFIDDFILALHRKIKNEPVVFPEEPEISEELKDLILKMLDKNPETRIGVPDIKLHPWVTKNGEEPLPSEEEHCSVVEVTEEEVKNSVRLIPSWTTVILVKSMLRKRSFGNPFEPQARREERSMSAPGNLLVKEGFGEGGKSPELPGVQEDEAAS

Cn1cc(-c2ccc(-c3cncc(Cl)c3N3CCC4(CCNC4=O)CC3)cc2)cn1  log2 fold change (COLO 205; gene expression, microarray, refers to: OXTR mRNA; concentration not given, 2 h; baseline: untreated cells): -2.5
CNc1ncc2c(/C=C/C(=O)N3CCC(OC)CC3)nn(Cc3cccc(C(F)(F)F)c3)c2n1  remaining activity (RPS6KA1 (Homo sapiens, UniProt Q15418); kinase activity, inhibitor; 1 µM; baseline: untreated control): 97%
Cc1cc(Nc2cc(N3CCN(C)CC3)nc(Sc3ccc(NC(=O)C4CC4)cc3)n2)[nH]n1  remaining activity (FLT3; kinase activity; 0.03 µM; baseline: control): 51%
Cn1nc2c3c(cccc31)C(=O)c1ccccc1-2  remaining activity (TRPM8; antagonist; HEK293; 5 µM; baseline: control): 98.2 ± 7.65%
COc1cc(Nc2ncc3c(n2)-c2ccc(Cl)cc2C(c2c(F)cccc2OC)=NC3)ccc1C(=O)O  remaining activity (RAF1; kinase activity; 1 µM): 105%
COc1cc(-c2cncc3c2CN(C)Cc2cc(N4CCNCC4)ccc2-3)cc(OC)c1OC  remaining activity (CAMKK1 (Homo sapiens, UniProt Q8N5S9); kinase activity; 1 µM, human enzyme, together with: ATP 10 µM; baseline: DMSO control): 107%
O=C1Nc2ccccc2/C1=C\c1c(Cl)[nH]c2ccccc12  remaining activity (TRPM8; antagonist; HEK293; 5 µM; baseline: control): 81.9 ± 16.9%
CC(C)C[C@H](NC(=O)C[C@H](O)[C@H](CC(C)C)NC(=O)[C@H](Cc1c[nH]cn1)NC(=O)CNC(=O)[C@@H](NC(=O)[C@H](C)NC(=O)[C@H](Cc1c[nH]c2ccccc12)NC(=O)[C@H](CCC(N)=O)NC(=O)[C@@H](Cc1ccccc1)NC(=O)COCCOCCNC(=O)CCC(C(=O)O)N1CCN(CC(=O)O)CCN(CC(=O)O)CCN(CC(=O)O)CC1)C(C)C)C(N)=O (stereo partly drawn) [lutetium-177 labelled]  tissue uptake (female BALB/c nu/nu mice, liver; intravenous, 100 pmol, 24 h, together with: PA 300 µg): 0.05 ± 0.01 %ID/g
COc1cc2nccc(Oc3ccc(NC(=S)NC(=O)c4ccccc4C)cc3)c2cc1OC  remaining activity (TRPM8; antagonist; HEK293; 5 µM; baseline: control): 110 ± 5.96%
COc1ccc(F)cc1C(=O)NCc1ccc(-c2nn([C@@H](C)C(F)(F)F)c(N)c2C(N)=O)cc1  remaining activity (LCK (Homo sapiens, UniProt P06239); kinase activity, inhibitor, HotSpot radiometric; 100 nM, together with: ATP 10 µM): 76.7 ± 0.1%
CC(C)(C(=O)N1CCOc2c(C#N)cncc2C1)C(F)F  subjects with myalgia TEAE (human, both sexes; oral, 20 mg single dose): 0%
COc1cc(F)ccc1-c1ncnc(Nc2cccc(C[S@](C)(=N)=O)c2)n1  remaining activity (FLT3; kinase activity; 10 µM, together with: 10 µM ATP): 36%
O=C(NC1CCC1)c1ccc2nc(-c3cccc(NS(=O)(=O)NCCN4CCCCC4)c3)cn2c1  remaining activity (FLT3 (Homo sapiens, UniProt P36888, D835H); enzyme activity; 10 µM): 100%
CCN(CC)C(=O)c1ccc(Nc2nc(OCC3CCCCC3)c3[nH]cnc3n2)cc1  remaining activity (TRPM8; antagonist; HEK293; 5 µM; baseline: control): 99.7 ± 10.4%
CC[C@@H]1[C@H](F)C(=O)N[C@@H]1COc1nccc2cc(C(N)=O)c(OC)cc12  inhibition (TNIK (Homo sapiens, UniProt Q9UKE5); ATP probe binding, KiNativ profiling, refers to: Lys1 probe site; THP-1 cell lysate; 0.2 mM): -20.6%
N#Cc1ccc2c(c1)[C@H]1CCCN(C(=O)c3ccc4[nH]cnc4c3)[C@H]1C2  total testosterone level (human males; 80 mg, day 7): 14.1 nmol/L
CC(C)C[C@H](NC(=O)C[C@H](O)[C@H](CC(C)C)NC(=O)[C@H](Cc1c[nH]cn1)NC(=O)CNC(=O)[C@@H](NC(=O)[C@H](C)NC(=O)[C@H](Cc1c[nH]c2ccccc12)NC(=O)[C@H](CCC(N)=O)NC(=O)[C@@H](Cc1ccccc1)NC(=O)COCCOCCNC(=O)CN1CCN(CC(=O)O)CCN(CC(=O)O)CCN(CC(=O)O)CC1)C(C)C)C(N)=O [lutetium-177 labelled]  tissue uptake (female BALB/c nu/nu mice, spleen; intravenous, 50 pmol, 24 h): 0.02 ± 0.01 %ID/g
C=CC(=O)N1CCC[C@@H](n2nc(-c3ccc(Oc4ccccc4)cc3)c3c(N)ncnc32)C1  remaining activity (CSNK1A1L (Homo sapiens, UniProt Q8N752); 1 µM): 137%
